Experimental data gathered from unrelated publications.
Compare with care: the assays were run in different laboratories. “And” joins repeats or separate records; there may be more than shown.
Target: Serine/threonine-protein kinase Nek9 (NEK9, Homo sapiens, UniProt Q8TD19)

For `COc1cc(Nc2nc(C)cc(-c3cnn4nc(OC)ccc34)n2)cc(C(F)(F)F)c1`, the remaining activity was 94% (inhibitor; 1 µM; baseline: control).
With `C=CC(=O)N1CCc2ccc(-n3c(=O)ccc4cnc5ccc(-c6cnn(C)c6)cc5c43)cc21` the remaining binding was 100% (KINOMEscan; 1 µM; baseline: DMSO control).
For `COc1ccc(C(=O)/C=C/c2ccccc2-c2c[nH]c3ccc(C#N)cc23)c(O)c1`, the inhibition was -8% (enzyme activity, inhibitor; 20 µM).
`CNC1C[S+]2CC[S+]3CC[S+](C1)[Ru-4]321([N]=C=S)[n]2c3ccc(OC)cc3c3c4c(c5cc(F)c[n+]1c5c32)C(=O)NC4=O` (stereo not shown) gave a remaining binding of 87% (KinomeScan; 0.1 µM; baseline: untreated).
With `Cc1cccc(O[C@H]2CCC[C@@H](C(C)CNCc3ccncc3)C2)c1` (relative stereo) the inhibition was -7% (enzyme activity, inhibitor; 10 µM).
With `CNC(=O)C1CCN(c2cc(C)c(F)cc2NC(=O)c2ccc(-c3cc(O)ccc3C)c(C)c2)CC1` the remaining binding was 100% (binding, competition with immobilised ligand; 1 µM).
The inhibition of `C=CC(=O)Nc1cccc(-c2cnc3[nH]cc(C(=O)NC(C)(C)C)c3n2)c1` is reported as 28% and 27% (kinase activity; 0.1 µM).
For `NC(=O)[C@@H](O)C[C@H]1CCc2sc3ncnc(O[C@H]4CC[C@H](N5CCOCC5)CC4)c3c21`, the inhibition was 1% (enzyme activity, inhibitor; 10 µM).
`CN1CC[C@@H](COc2cnc(C#N)cc2-c2ccn3nc(NC(=O)C4CC4)cc3c2)C1` gave an inhibition of 5% (enzyme activity, inhibitor; 1 µM).
For `CCn1cc(C(=O)O)c(=O)c2c(N)c(F)c(NC3CCCCC3)cc21`, the inhibition was -0.3% (kinase activity; 0.1 µM, together with: ATP at Km).
With `COc1c(Cl)cccc1Nc1c(-c2ccncc2C#C[C@@]2(C)CCCN2C(=O)/C=C/CN(C)C)[nH]c2c1C(=O)NCC2` the remaining binding was 100% (binding, competition with immobilised ligand; 3 µM).
`C=CC(=O)N1CCCC(n2c(=O)c3ncccc3n(Cc3ccc(Oc4ccccc4)cc3)c2=O)C1` (stereo not shown) gave a remaining binding of 97% (cell-free assay, competition with immobilised ligand; 1 µM).
The remaining activity of `Nc1ncc(-c2cc(-c3cnn(CC(F)(F)F)c3)ncc2F)nc1C(=O)NC1CNCC(F)C1` (stereo not shown) is reported as 106% (enzyme activity; 1 µM; baseline: DMSO control).
